Earlier results, collected from citations in different studies.
Lines come from different studies, so protocols differ.

SMILES	target or system	assay	system	conditions	quantity	result
FC(F)(F)c1cc(-c2ccccc2)c2nncn2c1	METAP2 (human)	enzyme activity	–	–	IC50	> 10000 nM
CCCS(=O)(=O)Nc1ccc(F)c(C(=O)c2c[nH]c3ncc(-c4ccc(Cl)cc4)cc23)c1F	ABCG2	–	S1-M1-80	–	IC50	2600 nM
Cc1cc(Nc2nccc(C)n2)cc(-c2cnc([C@@]3(O)CC[C@H](C(=O)O)C(C)(C)C3)s2)c1	ZAP70	–	–	kinase panel	IC50	24 nM
CCCc1nc2c(C)cc(-c3nc4ccccc4n3C)cc2n1Cc1ccc(-c2ccccc2C(=O)O)cc1	Cryptosporidium parvum	high-throughput screen	–	concentration not given	activity	inactive
O=C(Cc1ccccc1)Nc1nnc(N2CC[C@@H]3[C@H]2CN3c2cccnn2)s1	GLS	biochemical	–	–	IC50	> 30000 nM
CC[C@@H]1C(=O)N(C)c2cnc(Nc3ccc(C(=O)N[C@H]4CC[C@H](N5CCN(CC6CC6)CC5)CC4)cc3OC)nc2N1C(C)C	PLK3	inhibitor	–	–	IC50	56 nM
O[C@]1(C(F)(F)F)CCCC[C@H]1Nc1ccc(F)cc1	TRPA1	biochemical	–	–	IC50	16 nM
CN(C)C/C=C/C(=O)Nc1cc2c(Nc3ccc(F)c(Cl)c3)ncnc2cc1O[C@H]1CCOC1	ABCG2	–	HEK293-ABCG2	–	IC50	500 nM
